Published values of several laboratories.
Every numbered part comes from another study and shows a few of its results, in no order. Positions count from the first letter of the parent shown.

Set 1
Target: TAR DNA-binding protein 43, full length, His tag (TARDBP, Homo sapiens, UniProt Q13148, residues 1-414)
Method: RNA Bind-n-Seq
Form: RNA
Matrix: in vitro
Concentration: 20 nM
Notes: 6-mer, flanks averaged, single round
Together with: 150 mM LiCl
Relative to: input library
Reading: higher = stronger binding
For `ACGUCU`, “6-mer enrichment (R)” read 0.855.
`GAGAAG`: “6-mer enrichment (R)” 1.06.
For `CCGCCU`, “6-mer enrichment (R)” read 0.959.
`CCGGCA` — result for “6-mer enrichment (R)”: 0.898.
`UACUCG` — result for “6-mer enrichment (R)”: 0.801.
Under “6-mer enrichment (R)”, `UUCGAA` is recorded as 0.857.
`UACGAA` — result for “6-mer enrichment (R)”: 0.843.
For `UCCAUG`, “6-mer enrichment (R)” read 0.913.
Under “6-mer enrichment (R)”, `GCGUGU` is recorded as 1.55.
`UUUACU` — result for “6-mer enrichment (R)”: 1.03.

Set 2
Target: Prothrombin, mature alpha-thrombin (F2, Homo sapiens, UniProt P00734)
Method: aptamer microarray, sandwich
Form: DNA with 2'F-ANA
Matrix: in vitro
Concentration: 200 nM
Notes: whole 15-mer aptamer, many near background
Together with: Cy3 exosite-II aptamer, 400 nM
Reading: higher = stronger binding
Strand: GGTTGGTGTGGTTGG
`2'F-ANA at 1 2 5 11 12 13 14` — result for “mean fluorescence intensity”: 66.7 a.u.
`2'F-ANA at 1 2 3 4 5 7 8 10 12 13 14`: “mean fluorescence intensity” 50.7 a.u.
For `2'F-ANA at 1 2 5 6 9 12 14 15`, “mean fluorescence intensity” read 159 a.u.
For `2'F-ANA at 3 4 9 10 12`, “mean fluorescence intensity” read 379 a.u.
Under “mean fluorescence intensity”, `2'F-ANA at 1 3 4 7 8 10 11 12` is recorded as 95.7 a.u.
For `2'F-ANA at 2 3 5 7 8 9 10 11 12 15`, “mean fluorescence intensity” read 98.7 a.u.
`2'F-ANA at 1 4 7 8 10 12 13 14` — result for “mean fluorescence intensity”: 54.7 a.u.
`2'F-ANA at 1 2 4 6 7 10 11 12 13 14 15`: “mean fluorescence intensity” 52.1 a.u.
`2'F-ANA at 1 2 3 4 5 8 9 11 13 14`: “mean fluorescence intensity” 46.1 a.u.
`2'F-ANA at 4 5 7 9 12 13 14` — result for “mean fluorescence intensity”: 58 a.u.
Under “mean fluorescence intensity”, `2'F-ANA at 3 4 8 9 10 12 13 14 15` is recorded as 202 a.u.
For `2'F-ANA at 3 4 6 7 9 11 12 13 15`, “mean fluorescence intensity” read 443 a.u.
`2'F-ANA at 2 3 6 7 8 9 10 13` — result for “mean fluorescence intensity”: 305 a.u.
`2'F-ANA at 1 3 4 8 9 12 15`: “mean fluorescence intensity” 425 a.u.
`2'F-ANA at 1 2 5 6 7 8 10 11 12`: “mean fluorescence intensity” 52.2 a.u.

Set 3
Target: CCNB2, cyclin fold, Cln2 fusion (human)
Method: yeast growth competition, sequencing
Matrix: yeast
Notes: strong parent motif
Relative to: not given
Reading: higher = stronger binding
Starting sequence: PKMYT1 docking peptide (human); SFEPRNLLSLFED
For `SFYPRNLLSLFED [E3Y]`, “normalised enrichment score” read 1.91.
`SFEPTNLLSLFED [R5T]`: “normalised enrichment score” 0.753.
`SFEARNLLSLFED [P4A]` — result for “normalised enrichment score”: 0.795.
Under “normalised enrichment score”, `SFEPRNLLSLWED [F11W]` is recorded as 0.0412.
`SFEFRNLLSLFED [P4F]`: “normalised enrichment score” -0.593.
Under “normalised enrichment score”, `SFEPRNLLSLHED [F11H]` is recorded as -0.344.
Under “normalised enrichment score”, `SFEPRNLLSLFET [D13T]` is recorded as 0.855.
`SFEPYNLLSLFED [R5Y]` — result for “normalised enrichment score”: 0.169.

Further values, each from its own experiment
`PhoQ, residues 284 288 289 292 302 303 SCKMEA` gave a fold induction of 7.41 (PhoP, residues 12 14 15 18 19 QYFSL (Escherichia coli, UniProt P23836); Sort-seq, measured: YFP reporter; E. coli; PhoQ-PhoP variant library, together with: 10 µM Mg2+; relative to: high Mg2+ state, higher = stronger signaling).

Some of these lines once more (set 3):
For `SFYPRNLLSLFED [E3Y]`, “normalised enrichment score” read 1.91.
Under “normalised enrichment score”, `SFEPRNLLSLFET [D13T]` is recorded as 0.855.
`SFEPTNLLSLFED [R5T]`: “normalised enrichment score” 0.753.
Under “normalised enrichment score”, `SFEPRNLLSLWED [F11W]` is recorded as 0.0412.
`SFEFRNLLSLFED [P4F]`: “normalised enrichment score” -0.593.
